Published values pooled from the literature.
Compare with care: the assays were run in different laboratories. ± gives the spread as reported.

| SMILES | cell line | assay | system | setting | how to read | measurement | result |
| --- | --- | --- | --- | --- | --- | --- | --- |
| CC[C@H](C)[C@H](NC(=O)[C@@H](NC(=O)[C@H](CCCCN)NC(=O)[C@@H](NC(=O)[C@@H]1CCCN1[C@@H]1CN(C(=O)[C@@H](NC(=O)[C@@H](NC(=O)[C@@H](NC(=O)[C@@H](NC(=O)[C@@H](NC(=O)[C@@H](N)CCCCN)C(C)C)C(C)C)C(C)C)[C@@H](C)CC)[C@@H](C)O)CC[C@H]1NS(=O)(=O)c1ccc(C)cc1)[C@@H](C)O)C(C)C)C(=O)N[C@@H](CC(C)C)C(=O)N[C@@H](Cc1c[nH]cn1)C(N)=O | PC-12 (neuronally differentiated) | LDH release |  | 20 h |  | highest non-toxic concentration | ≥ 100 µM |
| CCCCCCCCCCCCCCCC(=O)OCC(CSC[C@H](N)C(=O)N[C@@H](CO)C(=O)N[C@@H](CCCCN)C(=O)N[C@@H](CCCCN)C(=O)N[C@@H](CCCCN)C(=O)N[C@@H](CCCCN)C(=O)NCCCCCC(=O)N[C@@H](CCCCN)C(=O)N[C@@H](CC(C)C)C(=O)N[C@H](C(=O)N[C@@H](Cc1ccccc1)C(=O)N[C@@H](Cc1ccccc1)C(=O)N[C@@H](Cc1ccc2ccccc2c1)C(=O)O)C(C)C)OC(=O)CCCCCCCCCCCCCCC (stereo partly drawn) | BV-2 | RT-qPCR, item: Tnf |  | 1.0 µM |  | mRNA level | increased |
| N#Cc1ccc(CSc2nc3cc4ccccc4cc3c(=O)n2Cc2ccccc2)cc1 | BGM | morphology and trypan blue |  | 72 h |  | maximum non-toxic concentration | 65 µg/mL |
| CC1N=C(c2ccccc2F)c2cc(Nc3ccccc3C(F)(F)F)ccc2NC1=O (stereo not drawn) | HEK293T | cytotoxicity, CellTiter-Glo |  | 18 h |  | LD50 | 69 ± 42 µM |
| O=c1c(Nc2ccc(Br)cc2)c(NC2CCN(Cc3ccccc3)CC2)c1=O | SH-SY5Y | MTT |  | 12.5 µM, 24 h |  | viability | 96.09 ± 0.57% |
| CC1C(=NNC(=O)c2ccncc2)C(C)C(c2ccc(Cl)cc2)OC1c1ccc(Cl)cc1 (stereo not drawn) | human PBMC | cytotoxicity, MTT |  |  |  | IC50 | 564 µg/mL |
| CSCC[C@H](NC(=O)CCCCCNC(=S)Nc1ccc2c(c1)C(=O)OC21c2ccc(O)cc2Oc2cc(O)ccc21)C(=O)N[C@@H](C)C(=O)N[C@@H](CC(N)=O)C(=O)N[C@@H](CC(C)C)C(=O)NCC(=O)N[C@@H](Cc1ccc(O)cc1)C(=O)N[C@@H](Cc1c[nH]c2ccccc12)C(=O)N[C@@H](CC(C)C)C(=O)N[C@@H](CC(C)C)C(=O)N[C@@H](C)C(=O)N[C@@H](CC(C)C)C(=O)N[C@@H](Cc1ccccc1)C(=O)N[C@H](C(=O)N[C@H](C(=O)N[C@@H](Cc1ccc(O)cc1)C(=O)N[C@@H](Cc1c[nH]c2ccccc12)C(=O)N[C@H](C(=O)N[C@@H](CC(=O)O)C(=O)N[C@@H](CC(C)C)C(=O)NCC(=O)N[C@@H](CC(C)C)C(=O)N[C@H](C(=O)N[C@@H](CCCCN)C(=O)N[C@@H](CCCCN)C(=O)N[C@@H](CCCNC(=N)N)C(=O)N1CCC[C@H]1C(=O)N[C@@H](CCCCN)C(=O)N1CCC[C@H]1C(=O)O)C(C)C)[C@@H](C)O)[C@@H](C)O)C(C)C | human PBMCs | imaging flow cytometry, FITC-labelled |  | 1 µM, 30 min | reference: CD19+ B cells | cells with internalized peptide | 30.5% |
| O=c1c(Nc2ccc(O)cc2)c(NC2CCN(Cc3ccccc3)CC2)c1=O | SH-SY5Y | MTT |  | 12.5 µM, 24 h |  | viability | 102 ± 1.32% |
| Cc1c(C)c(C)[c-](C)c1C.Fc1c[c-]c(-c2ccccn2)cc1.[Cl-].[Ir+3] | A2780 | ICP-MS, item: iridium in cytosol fraction |  | IC50 |  | iridium share in fraction | 51.4% |
| Cc1c(Br)cnc2c1NC(=O)c1cccnc1N2C1CC1 | primary human hepatocytes | midazolam 1'-hydroxylation |  | 25 and 100 µM, 72 h | reference: vehicle | CYP3A4 activity | no effect |
| CCn1c(=S)[nH]c2cc3ccccc3cc2c1=O | BGM | morphology and trypan blue |  | 72 h |  | maximum non-toxic concentration | 60 µg/mL |
| O=C(CCCC[C@@H]1SC[C@@H]2NC(=O)N[C@@H]21)NCCCC[C@@H](NC(=O)[C@@H](Cc1ccccc1)NC(=O)[C@@H](Cc1ccccc1)NC(=O)Cc1ccc2ccccc2c1)C(=O)N[C@H](Cc1ccc(OP(=O)(O)O)cc1)C(=O)O | HS5 | dephosphorylation, item: D1-B |  | 24 h |  | conversion | 68.5% |
| COC(=O)C1=CO[C@@H](OC(C)=O)[C@@H]2C(Cn3cc(COCc4ccccc4)nn3)=CC[C@H]12 | SK-N-SH | MTT |  | 0.075 to 0.6 µM, 24 h, together with: H2O2 |  | viability | > 78% |
| CC[C@H](C)[C@H](NC(=O)CNC(=O)[C@H](CCCNC(=N)N)NC(=O)[C@H](CCCCN)NC(=O)CNC(=O)[C@H](CC(N)=O)NC(=O)CNC(=O)CNC(=O)CNC(=O)[C@H](CC(C)C)NC(=O)[C@H](C)NC(=O)CNC(=O)[C@H](Cc1c[nH]c2ccccc12)NC(=O)[C@H](Cc1ccc(O)cc1)NC(=O)CNC(=O)[C@H](CCCNC(=N)N)NC(=O)[C@H](CCSC)NC(=O)CNC(=O)[C@H](CCCCN)NC(=O)[C@H](CC(N)=O)NC(=O)[C@H](Cc1ccccc1)NC(=O)[C@H](CCCCN)NC(=O)[C@@H](N)CC(N)=O)C(=O)N[C@@H](CCCNC(=N)N)C(=O)NCC(=O)N[C@@H](Cc1ccc(O)cc1)C(=O)N[C@@H](CC(=O)O)C(=O)O | 3T3 fibroblasts | MTT |  | 1 nM to 10 µM, 24 h |  | cytotoxicity | not toxic |
| Cn1c(SCc2cccc(C#N)c2)nc2cc3ccccc3cc2c1=O | BGM | morphology and trypan blue |  | 72 h |  | maximum non-toxic concentration | 65 µg/mL |
| CC(C)=CCC[C@@](C)(O)[C@H]1CC[C@]2(C)[C@@H]1CC[C@@H]1[C@@]3(C)CCC(=O)C(C)(C)[C@@H]3CC[C@]12C | HEK293-A | cell growth or viability, SRB |  |  |  | IC50 | 34.1 µM |
| COc1ccc(CNc2c(NC3CCN(Cc4ccccc4)CC3)c(=O)c2=O)cc1OC | SH-SY5Y | MTT |  | 12.5 µM, 24 h |  | viability | 102 ± 0.97% |
| NCCCC[C@H](NC(=O)[C@H](Cc1ccccc1)NC(=O)[C@H](CCCCN)NC(=O)[C@H](Cc1ccccc1)NC(=O)[C@H](CCC(=O)O)NC(=O)[C@H](Cc1ccccc1)NC(=O)[C@H](CCC(=O)O)NC(=O)[C@@H](N)Cc1ccccc1)C(=O)O | hMSC | RP-HPLC | hydrogel, serum-free medium | day 6, hydrogel 25 mg/mL, 20 mM | reference: day 0 | intact peptide remaining | 23.3 ± 0.1% |
| CC[C@H](C)[C@H](NC(=O)[C@H](CCCCN)NC(=O)[C@H](C)NC(=O)[C@H](CCCNC(=N)N)NC(=O)[C@H](CCCCN)NC(=O)[C@H](CC(N)=O)NC(=O)[C@H](CCC(N)=O)NC(=O)[C@H](Cc1ccccc1)NC(=O)[C@H](Cc1c[nH]c2ccccc12)NC(=O)[C@@H](NC(=O)[C@H](CCCCN)NC(=O)[C@@H](NC(=O)[C@H](CCC(N)=O)NC(=O)[C@H](CO)NC(=O)[C@H](CC(C)C)NC(=O)[C@H](CCC(N)=O)NC(=O)[C@H](C)NC(=O)[C@H](CCCNC(=N)N)NC(=O)[C@@H](NC(=O)[C@H](Cc1ccccc1)NC(=O)[C@@H](NC(=O)[C@@H](NC(=O)[C@H](CCCNC(=N)N)NC(=O)[C@H](CCC(=O)O)NC(=O)[C@H](CCCNC(=N)N)NC(=O)[C@H](CCCNC(=N)N)NC(=O)[C@H](CCC(N)=O)NC(=O)[C@H](CCCCN)NC(=O)[C@H](CCCNC(=N)N)NC(=O)CNC(=O)CNC(=O)CNC(=O)CNC(=O)CNC(=O)CCCC[C@@H]1SC[C@@H]2NC(=O)N[C@@H]21)[C@@H](C)O)[C@@H](C)O)[C@@H](C)O)[C@@H](C)CC)[C@@H](C)CC)C(=O)N[C@@H](CCCCN)C(=O)N[C@@H](CCCCN)C(N)=O | SK-OV-3 | MALDI-TOF MS |  | 7 µM, 1 h, 37 °C | reference: SK-OV-3 over CHO-K1 | internalization ratio | ~3 fold |
| O=C1/C(=N\NC(=S)NN=Cc2cccs2)c2ccccc2N1Cc1ccccc1 | CRFK | cell morphology |  |  |  | minimum cytotoxic concentration | 63 µM |
| O=C(CCC(=O)OCCNC(=O)[C@H](Cc1ccccc1)NC(=O)[C@H](Cc1ccccc1)NC(=O)Cc1ccc2ccccc2c1)NCCS(=O)(=O)O | SK-OV-3 | LC-MS | culture medium | 50 µM, 4 h |  | concentration in medium | 39 µM |
| Nc1ccc(CCNc2c(NC3CCN(Cc4ccccc4)CC3)c(=O)c2=O)cc1 | SH-SY5Y | MTT |  | 12.5 µM, 24 h |  | viability | 96.36 ± 0.14% |
| CC[C@H](C)[C@H](NC(=O)[C@H](CCC(=O)O)NC(=O)CNC(=O)[C@@H](NC(=O)[C@H](CC(C)C)NC(=O)[C@H](CC(C)C)NC(=O)[C@H](CC(C)C)NC(=O)[C@H](CC(C)C)NC(=O)[C@H](CS)NC(=O)[C@H](CO)NC(=O)[C@H](Cc1ccccc1)NC(=O)CNC(=O)[C@H](CCCNC(=N)N)NC(=O)[C@@H]1CCCN1C(=O)[C@H](C)NC(=O)[C@H](CCSC)NC(=O)CNC(=O)CNC(=O)[C@H](Cc1ccccc1)NC(=O)[C@H](CCCCN)NC(=O)[C@H](Cc1c(C)cc(O)cc1C)NC(=O)[C@H](N)CCCNC(=N)N)[C@@H](C)O)C(=O)N[C@@H](CC(=O)O)C(=O)N[C@@H](CC(C)C)C(=O)N1CCC[C@H]1C(=O)N[C@H](C(=O)N[C@@H](CCCCN)C(=O)N[C@@H](CCCNC(=N)N)C(=O)N[C@@H](CCCNC(=N)N)C(=O)N[C@@H](C)C(N)=O)C(C)C | mouse erythrocytes |  |  | below 1 µM, 1 h, 37 °C |  | hemolysis | < 0.86% |
| Cc1ccc(Nc2c(NC3CCN(Cc4ccccc4)CC3)c(=O)c2=O)cc1 | SH-SY5Y | MTT |  | 6.25 µM, 24 h |  | viability | 99.8 ± 1.43% |
| COc1cccc(CSc2nc3cc4ccccc4cc3c(=O)n2C)c1 | BGM | morphology and trypan blue |  | 72 h |  | maximum non-toxic concentration | 50 µg/mL |
| CC(C)C[C@H](NC(=O)[C@H](CCCCN)NC(=O)[C@H](CC(C)C)NC(=O)[C@H](CC(C)C)NC(=O)[C@H](CCCCN)NC(=O)[C@H](CCCCN)NC(=O)[C@H](CC(C)C)NC(=O)[C@H](CC(C)C)NC(=O)[C@H](CCCCN)NC(=O)[C@H](CC(C)C)NC(=O)[C@H](CC(C)C)NC(=O)[C@H](CCCCN)NC(=O)[C@H](CCCCN)NC(=O)[C@H](CC(C)C)NC(=O)[C@@H](N)CSSC[C@H](N)C(=O)N[C@@H](CC(C)C)C(=O)N[C@@H](CCC(=O)O)C(=O)N[C@@H](Cc1c[nH]cn1)C(=O)N[C@@H](CC(C)C)C(=O)N[C@@H](CC(C)C)C(=O)N[C@@H](CCC(=O)O)C(=O)N[C@@H](Cc1c[nH]cn1)C(=O)N[C@@H](CC(C)C)C(=O)N[C@@H](CCC(=O)O)C(=O)N[C@@H](Cc1c[nH]cn1)C(=O)N[C@@H](CC(C)C)C(=O)N[C@@H](CC(C)C)C(=O)N[C@@H](CCC(=O)O)C(=O)N[C@@H](Cc1c[nH]cn1)C(N)=O)C(N)=O | mouse erythrocytes | hemolysis |  | 1 h, 37 °C |  | HC10 | ~148 µM |
| Cc1ccc(CCNc2c(NC3CCN(Cc4ccccc4)CC3)c(=O)c2=O)cc1 | SH-SY5Y | MTT |  | 12.5 µM, 24 h |  | viability | 101 ± 2.64% |
| CC(C)C[C@H](NC(=O)[C@H](CCCCN)NC(=O)[C@H](CC(C)C)NC(=O)[C@H](CC(C)C)NC(=O)[C@H](CCCCN)NC(=O)[C@H](CCCCN)NC(=O)[C@H](CC(C)C)NC(=O)[C@H](CC(C)C)NC(=O)[C@H](CCCCN)NC(=O)[C@H](CC(C)C)NC(=O)[C@H](CC(C)C)NC(=O)[C@H](CCCCN)NC(=O)[C@H](CCCCN)NC(=O)[C@@H](N)CC(C)C)C(N)=O | mouse erythrocytes | hemolysis |  | 1 h, 37 °C |  | HC10 | 12.3 µM |
| CC1C(=NNC(=O)c2ccncc2)C(C)C(c2ccc(Br)cc2)OC1c1ccc(Br)cc1 (stereo not drawn) | human PBMC | cytotoxicity, MTT |  |  |  | IC50 | 514 µg/mL |
| COc1cccc(CCNc2c(NC3CCN(Cc4ccccc4)CC3)c(=O)c2=O)c1 | SH-SY5Y | MTT |  | 12.5 µM, 24 h |  | viability | 77.87 ± 0.55% |
